{"data": "Measured values from different studies", "cell line": "HCT-116", "note": "Compare with care: the assays were run in different laboratories. Numbers after ± are the reported error."}
{"Structure (SMILES)": "[BH3-][P+]1(C2CCCCC2)CCCCC1", "assay": "cell growth or viability, MTT", "setting": "72 h", "IC50 [µM]": 52.8}
{"Structure (SMILES)": "CCC(=[N][Pt-2]1([Cl])[NH2+]CCC[NH2+]1)N(C)CCNc1c2ccccc2nc2ccccc12.O=[N+]([O-])O.O=[N+]([O-])O", "assay": "cell growth or viability, MTS", "setting": "72 h", "IC50 [µM]": 2.52}
{"Structure (SMILES)": "O=C(CCc1ccco1)N1C(=O)C2(NC(c3ccc(F)cc3)C3(C(=O)Nc4ccccc43)N2Cc2ccc(F)cc2)c2ccccc21 (stereo not shown)", "assay": "cell growth or viability, MTT", "setting": "48 h", "IC50 [µM]": 66.3}
{"Structure (SMILES)": "Cc1nc2ccc(Br)cc2c(=O)n1N", "assay": "cytotoxicity, LDH release", "setting": "24 h, 50% viability reduction", "IC50 [µM]": "758 ± 19.5"}
{"Structure (SMILES)": "CCCCCCCCCCCCCCCCCC(=O)[O][Pt-2]1([OH])([Cl])([NH+]=C(CC)N(C)CCNc2c3ccccc3[nH+]c3ccccc23)[NH]CCC[NH]1.O=[N+]([O-])O.O=[N+]([O-])O", "assay": "cell growth or viability, MTS", "setting": "72 h", "IC50 [µM]": 0.11}
{"Structure (SMILES)": "CCOC(=O)/C=C1\\S/C(=N\\N=C\\c2cccc3cc4ccccc4nc23)N(C)C1=O", "assay": "cell growth or viability, MTT", "setting": "48 h", "IC50 [µM]": 46.6}
{"Structure (SMILES)": "Cc1nc(Nc2ccc3c(c2)/C(=C/c2ccccc2)C(=O)N3)c2ccccc2n1", "assay": "cell growth or viability, MTT", "IC50 [µM]": 24.2}
{"Structure (SMILES)": "COc1cc(-n2cc3cc(F)cc(C(N)=O)c3n2)cc(Cl)c1C1CC(O)(CCO)CC2CCCC21 (stereo not shown)", "assay": "cell growth or viability, MTT", "setting": "72 h", "IC50 [µM]": 0.14}
{"Structure (SMILES)": "CNS(=O)(=O)Nc1nccc(Cc2c(C)c3ccc(Oc4ncccc4F)cc3oc2=O)c1F", "assay": "cell viability", "setting": "7 days", "IC50 [µM]": 0.0775}
{"Structure (SMILES)": "CC(C)CN1C(=O)CS/C1=N\\N=C\\c1cccc2cc3ccccc3nc12", "assay": "cell growth or viability, MTT", "setting": "48 h", "IC50 [µM]": "> 50"}
{"Structure (SMILES)": "O=C1/C(=N\\c2ccccc2Br)c2ccccc2N1Cc1ccc([N+](=O)[O-])cc1", "assay": "cell growth or viability, MTT", "setting": "48 h", "IC50 [µM]": 7.82}
{"Structure (SMILES)": "CN1C(=O)CS/C1=N\\N=C\\c1cccc2cc3ccccc3nc12", "assay": "cell growth or viability, MTT", "setting": "48 h", "IC50 [µM]": 32}
{"Structure (SMILES)": "O=C1/C(=N\\c2cccc(Cl)c2)c2ccccc2N1Cc1ccccc1", "assay": "cell growth or viability, MTT", "setting": "48 h", "IC50 [µM]": 1.08}
{"Structure (SMILES)": "O=C1CS/C(=N\\N=C\\c2cccc3cc4ccccc4nc23)N1c1ccc([N+](=O)[O-])cc1", "assay": "cell growth or viability, MTT", "setting": "48 h", "IC50 [µM]": "> 50"}
{"Structure (SMILES)": "Cc1nc(Nc2ccc3c(c2)/C(=C/c2cn(C)c4ccccc24)C(=O)N3C)c2ccccc2n1", "assay": "cell growth or viability, MTT", "IC50 [µM]": 1.88}
{"Structure (SMILES)": "O=C1CCP(=O)(c2ccccc2)CC1", "assay": "cell growth or viability, MTT", "setting": "72 h", "IC50 [µM]": "> 100"}
{"Structure (SMILES)": "COc1ccccc1/C=C1\\C(=O)N(C)c2ccc(Nc3nc(C)nc4ccccc34)cc21", "assay": "cell growth or viability, MTT", "IC50 [µM]": 12.8}
{"Structure (SMILES)": "O=C1CS/C(=N\\N=C\\c2cccc3cc4ccccc4nc23)N1c1ccc(F)cc1", "assay": "cell growth or viability, MTT", "setting": "48 h", "IC50 [µM]": 30.4}
{"Structure (SMILES)": "Cc1ccccc1/C=C/C(=O)N[C@@H](CO)C(=O)N[C@H](C(=O)N[C@H](Cc1ccccc1)C(=O)O)[C@@H](C)O", "IC50 [µM]": "> 20"}
{"Structure (SMILES)": "[BH3-][P@+]1(c2ccccc2)CC[C@@H](O)CC1", "assay": "cell growth or viability, MTT", "setting": "72 h", "IC50 [µM]": "> 100"}
{"Structure (SMILES)": "CCc1ccc(/N=C2\\C(=O)N(Cc3ccc([N+](=O)[O-])cc3)c3ccccc32)cc1", "assay": "cell growth or viability, MTT", "setting": "48 h", "IC50 [µM]": 6.85}
{"Structure (SMILES)": "CCOC(=O)/C=C1\\S/C(=N\\N=C\\c2cccc3cc4ccccc4nc23)N(c2ccc(OC)cc2)C1=O", "assay": "cell growth or viability, MTT", "setting": "48 h", "IC50 [µM]": 37.2}
{"Structure (SMILES)": "O=C1/C(=N\\c2ccc(Cl)cc2Br)c2ccccc2N1Cc1cccc(Cl)c1 (mixture of isomers)", "assay": "cell growth or viability, MTT", "setting": "48 h", "IC50 [µM]": 1.18}
{"Structure (SMILES)": "O=C(/C=C/Sc1ccc(C(F)(F)F)cn1)c1ccccc1", "assay": "cell growth or viability, ATP luminescence", "setting": "48 h", "IC50 [µM]": 4.1}
{"Structure (SMILES)": "Cc1cc(C)n(CO)n1", "assay": "cell growth or viability, MTT", "setting": "24 h", "IC50 [µM]": 49.8}
{"Structure (SMILES)": "[BH3-][P+]1(c2ccccc2)CCCCC1", "assay": "cell growth or viability, MTT", "setting": "72 h", "IC50 [µM]": 49}
{"Structure (SMILES)": "CC(=O)OC[C@H]1O[C@@H](Oc2ccc(C#[C][Pt+])cc2)[C@H](OC(C)=O)[C@@H](OC(C)=O)[C@@H]1OC(C)=O.O=S(=O)([O-])C(F)(F)F.c1ccc(-c2cccc(-c3ccccn3)n2)nc1", "assay": "cell growth or viability", "setting": "24 h", "IC50 [µM]": "> 100"}
{"Structure (SMILES)": "Cc1nc(N(C)c2ccc3c(c2)/C(=C/c2ccccc2C)C(=O)N3C)c2ccccc2n1", "assay": "cell growth or viability, MTT", "IC50 [µM]": 0.27}
{"Structure (SMILES)": "CCC(=[NH+][Pt-2]1([Cl])([O]C(C)=O)([O]C(C)=O)[NH]CCC[NH]1)N(C)CCNc1c2ccccc2[nH+]c2ccccc12.O=[N+]([O-])O.O=[N+]([O-])O", "assay": "cell growth or viability, MTS", "setting": "72 h", "IC50 [µM]": 7.85}
{"Structure (SMILES)": "O=[P@]1(c2ccccc2)CC[C@H](O)CC1", "assay": "cell growth or viability, MTT", "setting": "72 h", "IC50 [µM]": "> 100"}
{"Structure (SMILES)": "CN1CCC(N[C@@H]2CCc3[nH]c4c(C(N)=O)ccc(-c5ccccc5Cl)c4c3C2)CC1", "assay": "cell growth or viability", "IC50 [µM]": 0.00012}
{"Structure (SMILES)": "CCOC(=O)c1cc(C)n(CO)n1", "assay": "cell growth, MTT", "setting": "24 h", "IC50 [µM]": "> 800"}
{"Structure (SMILES)": "CCNC(=S)NN=Cc1c2ccccc2cc2ccccc12.Cc1ccc(C(C)C)cc1.[Cl-].[Cl-].[Ru+2]", "assay": "cytotoxicity, MTS", "setting": "48 h", "IC50 [µM]": "248 ± 8"}
{"Structure (SMILES)": "O=C1Nc2ccccc2C12NC(c1ccc(F)cc1)C1(C(=O)Nc3ccccc31)N2Cc1ccc(F)cc1 (stereo not shown)", "assay": "cell growth or viability, MTT", "setting": "48 h", "IC50 [µM]": 28.8}
{"Structure (SMILES)": "O=[N+]([O-])c1ccc(O)c(/C=N/Nc2ccccc2)c1", "assay": "cell growth or viability, MTT", "setting": "24 h", "IC50 [µM]": 15.4}
{"Structure (SMILES)": "CCOC(=O)/C=C1\\S/C(=N\\N=C\\c2cccc3cc4ccccc4nc23)N(c2ccc(F)cc2)C1=O", "assay": "cell growth or viability, MTT", "setting": "48 h", "IC50 [µM]": "> 50"}
{"Structure (SMILES)": "O=C1Nc2ccccc2C12NC(c1ccc(Cl)c(Cl)c1)C1(C(=O)Nc3ccccc31)N2Cc1ccc(Cl)c(Cl)c1 (stereo not shown)", "assay": "cell growth or viability, MTT", "setting": "48 h", "IC50 [µM]": 48.7}
{"Structure (SMILES)": "C/C(=N\\Nc1ncnc2sc3c(c12)CCCC3)c1cc(O)ccc1O", "assay": "cell growth or viability, CCK-8", "setting": "48 h", "IC50 [µM]": 1.28}
{"Structure (SMILES)": "NC(=O)c1ccc(-c2ccccc2Cl)c2c3c([nH]c12)CC[C@@H](N)C3", "assay": "cell growth or viability", "IC50 [µM]": 0.00242}
{"Structure (SMILES)": "O=C1Nc2ccccc2/C1=N/c1ccc(Cl)cc1Br", "assay": "cell growth or viability, MTT", "setting": "48 h", "IC50 [µM]": 12.6}
{"Structure (SMILES)": "COC(=O)c1cc(NC2=NC(=O)C(=Cc3ccc(N(C)C)cc3)S2)ccc1OC(C)=O", "assay": "cell growth or viability, SRB", "IC50 [µM]": 0.44}
{"Structure (SMILES)": "CCOC(=O)/C=C1\\S/C(=N\\N=C\\c2cccc3cc4ccccc4nc23)N(CC(C)C)C1=O", "assay": "cell growth or viability, MTT", "setting": "48 h", "IC50 [µM]": 46.6}
{"Structure (SMILES)": "Cc1nc(N(C)c2ccc3c(c2)/C(=C/c2ccccc2)C(=O)N3C)c2ccccc2n1", "assay": "cell growth or viability, MTT", "IC50 [µM]": 5.39}
{"note": "For quick reference, copied from above:"}
{"Structure (SMILES)": "CCc1ccc(/N=C2\\C(=O)N(Cc3ccc([N+](=O)[O-])cc3)c3ccccc32)cc1", "assay": "cell growth or viability, MTT", "setting": "48 h", "IC50 [µM]": 6.85}
{"Structure (SMILES)": "CCOC(=O)/C=C1\\S/C(=N\\N=C\\c2cccc3cc4ccccc4nc23)N(c2ccc(OC)cc2)C1=O", "assay": "cell growth or viability, MTT", "setting": "48 h", "IC50 [µM]": 37.2}
{"Structure (SMILES)": "O=C1/C(=N\\c2ccc(Cl)cc2Br)c2ccccc2N1Cc1cccc(Cl)c1 (mixture of isomers)", "assay": "cell growth or viability, MTT", "setting": "48 h", "IC50 [µM]": 1.18}
{"Structure (SMILES)": "O=C(/C=C/Sc1ccc(C(F)(F)F)cn1)c1ccccc1", "assay": "cell growth or viability, ATP luminescence", "setting": "48 h", "IC50 [µM]": 4.1}
{"Structure (SMILES)": "Cc1cc(C)n(CO)n1", "assay": "cell growth or viability, MTT", "setting": "24 h", "IC50 [µM]": 49.8}
{"Structure (SMILES)": "[BH3-][P+]1(c2ccccc2)CCCCC1", "assay": "cell growth or viability, MTT", "setting": "72 h", "IC50 [µM]": 49}
{"Structure (SMILES)": "CC(=O)OC[C@H]1O[C@@H](Oc2ccc(C#[C][Pt+])cc2)[C@H](OC(C)=O)[C@@H](OC(C)=O)[C@@H]1OC(C)=O.O=S(=O)([O-])C(F)(F)F.c1ccc(-c2cccc(-c3ccccn3)n2)nc1", "assay": "cell growth or viability", "setting": "24 h", "IC50 [µM]": "> 100"}
